Measured values from different studies.
Compare with care: the assays were run in different laboratories.

SMILES | test | test system | conditions | how to read | measurement | result
CCCCCCCOc1ccc(CC[C@](N)(CO)COP(=O)(O)O)cc1C(F)(F)F |  | healthy human males, plasma | 0.25 mg, day 21 |  | Cmax | 3.76 ng/mL
CN1CCC[C@]1(C)/C=C/S(=O)(=O)NC(=O)Nc1c2c(cc3c1CCC3O)CCC2 (stereo partly drawn) |  | human, plasma | oral, 100 mg twice daily of parent drug, day 14, metabolite of dosed drug |  | Cmax at second steady-state dose | 81400 ng/mL
CCOc1cc(CC(=O)N[C@@H](CC(C)C)c2ccccc2N2CCCCC2)ccc1C(=O)O |  | human | oral, dose not given, with: omaveloxolone | reference: substrate alone | Cmax decrease | 23%
CN1CCC[C@]1(C)/C=C/S(=O)(=O)NC(=O)Nc1c2c(cc3c1C(O)CC3)CCC2 (stereo partly drawn) |  | human, plasma | oral, 12.5 mg twice daily of parent drug, day 14, metabolite of dosed drug |  | Cmax at second steady-state dose | 3100 ng/mL
O=C(CCc1ccc(CNC(C(=O)O)C2CCCCC2)cn1)NO (stereo not drawn) |  | healthy male humans, plasma | oral, 40 mg, single dose | reference: fed over fasted | Cmax ratio | 0.57
CN1CCC[C@]1(C)/C=C/S(=O)(=O)NC(=O)Nc1c2c(cc3c1CCC3)CC=C2 |  | human, plasma | oral, 100 mg twice daily of parent drug, day 14, metabolite of dosed drug |  | Cmax at first steady-state dose | 54500 ng/mL
O=C(CCc1ccc(CNC(C(=O)OC2CCCC2)C2CCCCC2)cn1)NO (stereo not drawn) |  | healthy male humans, plasma | oral, 20 mg, single dose | reference: fed over fasted | Cmax ratio | 0.66
CC1(C)CC[C@]2(NC(=O)C(C)(F)F)CC[C@]3(C)[C@H](C(=O)C=C4[C@@]5(C)C=C(C#N)C(=O)C(C)(C)[C@@H]5CC[C@]43C)[C@@H]2C1 | geometric least squares mean | human, plasma | oral, 150 mg, given alone |  | Cmax | 43 ng/mL
CC(C)C[C@H](NC(=O)[C@H](CCCN)NC(=O)CNC(=O)[C@@H](NC(=O)[C@H](C)NC(=O)[C@@H]1CSCSC[C@H](NC(=O)CC[C@H](N)C(=O)O)C(=O)N[C@@H](CC(N)=O)C(=O)N[C@@H]([C@@H](C)O)C(=O)N[C@@H](C)C(=O)N[C@@H]([C@@H](C)O)C(=O)N1)[C@@H](C)O)C(=O)N[C@@H](C)C(=O)N[C@@H](CCC(=O)O)C(=O)N[C@@](C)(Cc1ccccc1)C(=O)N[C@@H](CC(C)C)C(=O)N[C@H](C(=O)N[C@@H](CCCNC(=N)N)C(=O)N[C@@H](CO)C(=O)N[C@@H](CO)C(=O)N[C@@H](CC(N)=O)C(=O)N(C)[C@@H](CC(N)=O)C(=O)N[C@@H](Cc1ccccc1)C(=O)NCC(=O)N1CCC[C@H]1C(=O)N[C@@H](CCCCNC(=O)CC[C@H](NC(=O)CC[C@H](NC(=O)CCCCCCCCCCCCCCCCCCC(=O)O)C(=O)O)C(=O)O)C(=O)N[C@@H](CC(C)C)C(=O)N1CCC[C@H]1C(=O)N1CCC[C@H]1C(=O)N[C@H](C(=O)N[C@@H](CCC(=O)O)C(=O)N[C@H](C(=O)NCC(=O)N[C@@H](CO)C(=O)N[C@@H](CC(N)=O)C(=O)N[C@H](C(=O)N[C@@H](Cc1ccc(O)cc1)C(N)=O)[C@@H](C)O)C(C)C)[C@@H](C)O)C(C)C |  | healthy human, plasma | subcutaneous, 12 mg single dose, geometric LS mean |  | Cmax | 1030 ng/mL

For quick reference, copied from above:
SMILES | test | test system | conditions | how to read | measurement | result
O=C(CCc1ccc(CNC(C(=O)OC2CCCC2)C2CCCCC2)cn1)NO (stereo not drawn) |  | healthy male humans, plasma | oral, 20 mg, single dose | reference: fed over fasted | Cmax ratio | 0.66
